Assay results collected from several papers.
Each line is one published result; not all experiments were run side by side. Numbers after ± are the reported error.
BACE1: Beta-secretase 1 (BACE1, Homo sapiens, UniProt P56817)
Sequence of UniProt P56817 (whole entry, looked up): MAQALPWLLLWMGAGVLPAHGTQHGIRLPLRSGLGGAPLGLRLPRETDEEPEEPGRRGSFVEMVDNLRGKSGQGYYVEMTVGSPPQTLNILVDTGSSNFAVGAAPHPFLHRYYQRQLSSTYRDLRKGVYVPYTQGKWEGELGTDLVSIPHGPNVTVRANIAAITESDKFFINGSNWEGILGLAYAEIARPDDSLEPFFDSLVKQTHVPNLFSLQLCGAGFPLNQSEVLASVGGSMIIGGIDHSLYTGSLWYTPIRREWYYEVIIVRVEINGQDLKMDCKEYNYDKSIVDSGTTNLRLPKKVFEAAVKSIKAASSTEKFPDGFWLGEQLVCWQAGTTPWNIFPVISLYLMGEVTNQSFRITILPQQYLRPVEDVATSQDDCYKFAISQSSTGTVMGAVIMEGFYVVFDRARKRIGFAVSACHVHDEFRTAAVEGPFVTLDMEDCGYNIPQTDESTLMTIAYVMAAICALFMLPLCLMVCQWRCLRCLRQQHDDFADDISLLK
Sequence of UniProt Q12908 (whole entry, looked up): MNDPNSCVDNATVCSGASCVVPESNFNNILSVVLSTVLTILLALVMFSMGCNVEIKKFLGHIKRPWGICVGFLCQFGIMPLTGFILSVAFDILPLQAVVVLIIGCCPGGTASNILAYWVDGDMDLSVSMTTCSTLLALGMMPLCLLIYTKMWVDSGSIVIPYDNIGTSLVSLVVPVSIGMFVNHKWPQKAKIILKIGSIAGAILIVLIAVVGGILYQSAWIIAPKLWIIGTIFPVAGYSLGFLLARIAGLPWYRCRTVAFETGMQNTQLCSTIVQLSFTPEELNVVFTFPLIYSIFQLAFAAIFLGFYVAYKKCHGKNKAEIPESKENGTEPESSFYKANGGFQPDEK
Sequence of UniProt P41145 (whole entry, looked up): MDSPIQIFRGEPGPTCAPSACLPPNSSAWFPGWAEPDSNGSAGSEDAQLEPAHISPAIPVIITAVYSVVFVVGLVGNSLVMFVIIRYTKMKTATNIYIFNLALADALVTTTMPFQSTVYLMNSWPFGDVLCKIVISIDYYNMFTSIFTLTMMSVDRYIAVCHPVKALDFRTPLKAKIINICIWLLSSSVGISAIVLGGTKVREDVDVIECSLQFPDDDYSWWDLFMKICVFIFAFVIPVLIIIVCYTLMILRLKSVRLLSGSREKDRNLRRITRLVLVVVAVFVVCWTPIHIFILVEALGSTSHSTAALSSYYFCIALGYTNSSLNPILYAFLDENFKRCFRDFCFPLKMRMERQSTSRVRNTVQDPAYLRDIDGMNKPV
Sequence of UniProt P00691 (whole entry, looked up): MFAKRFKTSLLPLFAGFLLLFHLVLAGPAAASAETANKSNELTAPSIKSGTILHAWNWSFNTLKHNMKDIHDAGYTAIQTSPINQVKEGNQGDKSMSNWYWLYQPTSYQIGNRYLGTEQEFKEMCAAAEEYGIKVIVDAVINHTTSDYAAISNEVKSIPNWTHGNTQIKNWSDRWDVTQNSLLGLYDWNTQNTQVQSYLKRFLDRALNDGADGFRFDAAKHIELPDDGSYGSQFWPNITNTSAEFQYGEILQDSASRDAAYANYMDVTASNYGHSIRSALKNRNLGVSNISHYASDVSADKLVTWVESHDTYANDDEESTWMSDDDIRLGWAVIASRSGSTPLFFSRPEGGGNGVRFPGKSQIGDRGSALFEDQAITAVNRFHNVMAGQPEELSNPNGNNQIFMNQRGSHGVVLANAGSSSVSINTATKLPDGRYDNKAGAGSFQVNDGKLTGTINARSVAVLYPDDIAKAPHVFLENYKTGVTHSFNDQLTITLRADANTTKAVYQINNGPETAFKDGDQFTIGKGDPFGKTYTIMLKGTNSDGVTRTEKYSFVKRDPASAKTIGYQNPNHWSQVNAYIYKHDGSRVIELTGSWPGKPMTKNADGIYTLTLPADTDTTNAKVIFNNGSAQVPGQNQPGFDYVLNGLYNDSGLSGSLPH
Sequence of UniProt P34969 (whole entry, looked up): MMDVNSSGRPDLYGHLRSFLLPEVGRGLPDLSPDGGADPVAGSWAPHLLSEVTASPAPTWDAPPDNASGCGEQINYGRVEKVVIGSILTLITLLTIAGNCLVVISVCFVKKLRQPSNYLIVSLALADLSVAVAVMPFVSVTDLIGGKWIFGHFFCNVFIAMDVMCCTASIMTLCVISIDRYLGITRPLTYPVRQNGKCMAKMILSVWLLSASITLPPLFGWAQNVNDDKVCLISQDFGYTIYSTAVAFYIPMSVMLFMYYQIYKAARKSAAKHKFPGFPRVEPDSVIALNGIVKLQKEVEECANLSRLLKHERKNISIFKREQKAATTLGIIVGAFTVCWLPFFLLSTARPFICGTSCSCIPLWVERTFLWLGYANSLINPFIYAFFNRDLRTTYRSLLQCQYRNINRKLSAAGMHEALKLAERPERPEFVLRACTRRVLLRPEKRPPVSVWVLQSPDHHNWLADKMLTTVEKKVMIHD
Sequence of UniProt P34975 (whole entry, looked up): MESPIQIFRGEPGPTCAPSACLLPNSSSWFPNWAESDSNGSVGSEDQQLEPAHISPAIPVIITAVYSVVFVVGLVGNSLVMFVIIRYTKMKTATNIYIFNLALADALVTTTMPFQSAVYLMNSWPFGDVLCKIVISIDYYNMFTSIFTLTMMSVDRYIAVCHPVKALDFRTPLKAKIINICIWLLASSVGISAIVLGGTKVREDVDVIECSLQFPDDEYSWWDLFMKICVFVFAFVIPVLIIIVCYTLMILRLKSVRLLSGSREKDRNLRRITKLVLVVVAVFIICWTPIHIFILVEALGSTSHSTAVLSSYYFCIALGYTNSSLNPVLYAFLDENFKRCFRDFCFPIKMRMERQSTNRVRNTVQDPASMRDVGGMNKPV
Sequence of UniProt P40763 (whole entry, looked up): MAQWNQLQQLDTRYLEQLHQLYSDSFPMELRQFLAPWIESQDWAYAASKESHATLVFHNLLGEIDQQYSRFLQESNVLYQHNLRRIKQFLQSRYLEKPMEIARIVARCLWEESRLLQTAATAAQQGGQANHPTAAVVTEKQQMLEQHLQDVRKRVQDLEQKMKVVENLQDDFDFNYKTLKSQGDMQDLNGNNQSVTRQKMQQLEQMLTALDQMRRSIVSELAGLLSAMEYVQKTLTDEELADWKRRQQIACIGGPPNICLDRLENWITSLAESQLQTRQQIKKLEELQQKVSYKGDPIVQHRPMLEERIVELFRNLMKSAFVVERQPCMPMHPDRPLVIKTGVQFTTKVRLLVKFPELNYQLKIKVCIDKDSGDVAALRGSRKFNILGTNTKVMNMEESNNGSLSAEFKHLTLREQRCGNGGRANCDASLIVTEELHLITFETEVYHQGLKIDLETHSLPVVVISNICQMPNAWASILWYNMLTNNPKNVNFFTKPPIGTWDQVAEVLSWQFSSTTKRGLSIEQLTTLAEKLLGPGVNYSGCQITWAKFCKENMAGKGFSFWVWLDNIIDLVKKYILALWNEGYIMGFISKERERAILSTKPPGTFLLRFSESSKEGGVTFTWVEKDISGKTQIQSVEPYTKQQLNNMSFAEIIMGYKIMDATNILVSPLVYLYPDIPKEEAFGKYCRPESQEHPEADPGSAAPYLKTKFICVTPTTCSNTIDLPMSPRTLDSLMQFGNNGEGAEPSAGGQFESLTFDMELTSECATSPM
Sequence of UniProt P52895 (whole entry, looked up): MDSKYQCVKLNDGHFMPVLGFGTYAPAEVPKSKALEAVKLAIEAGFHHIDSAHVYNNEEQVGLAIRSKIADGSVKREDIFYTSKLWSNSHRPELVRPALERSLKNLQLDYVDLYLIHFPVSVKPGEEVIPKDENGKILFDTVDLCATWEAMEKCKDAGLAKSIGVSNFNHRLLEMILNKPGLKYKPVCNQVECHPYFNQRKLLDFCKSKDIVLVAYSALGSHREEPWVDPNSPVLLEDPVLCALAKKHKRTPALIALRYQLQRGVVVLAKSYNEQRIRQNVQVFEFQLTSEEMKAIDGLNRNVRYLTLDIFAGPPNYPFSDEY
Sequence of UniProt P0C0V0 (whole entry, unmodified, looked up): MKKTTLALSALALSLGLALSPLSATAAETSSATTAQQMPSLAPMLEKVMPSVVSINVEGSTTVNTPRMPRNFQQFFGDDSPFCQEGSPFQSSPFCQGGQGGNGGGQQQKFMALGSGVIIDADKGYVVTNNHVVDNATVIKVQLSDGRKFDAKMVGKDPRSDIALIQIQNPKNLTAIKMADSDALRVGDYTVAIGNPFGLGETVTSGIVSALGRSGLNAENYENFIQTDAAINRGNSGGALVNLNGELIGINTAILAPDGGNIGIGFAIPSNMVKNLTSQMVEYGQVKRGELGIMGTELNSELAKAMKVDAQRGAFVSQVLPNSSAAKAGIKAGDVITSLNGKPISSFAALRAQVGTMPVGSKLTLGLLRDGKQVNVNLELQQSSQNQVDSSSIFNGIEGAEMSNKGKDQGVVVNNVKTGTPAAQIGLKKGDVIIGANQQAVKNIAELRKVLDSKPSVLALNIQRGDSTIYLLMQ
Sequence of UniProt P42574 (whole entry, looked up): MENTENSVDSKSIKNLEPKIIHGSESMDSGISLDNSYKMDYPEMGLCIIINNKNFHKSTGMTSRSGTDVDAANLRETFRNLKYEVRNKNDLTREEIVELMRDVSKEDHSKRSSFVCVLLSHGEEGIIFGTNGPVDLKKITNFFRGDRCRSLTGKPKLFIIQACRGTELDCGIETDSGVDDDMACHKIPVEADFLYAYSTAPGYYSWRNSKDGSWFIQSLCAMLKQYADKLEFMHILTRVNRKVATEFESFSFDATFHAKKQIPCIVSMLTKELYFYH

Structure (SMILES) | target | test | system | conditions | how to read | measurement | result
COc1ccc2cc1Oc1ccc(cc1)C[C@H]1c3cc(c(OC)cc3CC[N@+]1(C)Cc1ccc3c(c1)C(=O)c1ccccc1C3=O)Oc1c(OC)c(OC)cc3c1[C@H](C2)[N@@+](C)(Cc1ccc2c(c1)C(=O)c1ccccc1C2=O)CC3 | poly(dA)·poly(dT) 18-bp dsDNA | DNA binding, ethidium bromide displacement | phosphate buffer, 10% DMSO | pH 7.2, 25 °C, dsDNA 10 µM, 10 mM NaCl, together with: ethidium bromide 5 µM |  | Stern-Volmer constant | 51700 M⁻¹
CC(=O)N[C@@H](CC(C)C)C(=O)N[C@@H](CCC(=O)O)C(=O)N[C@@H](Cc1c[nH]cn1)C(=O)N[C@@H](CC(=O)O)C(=O)Nc1ccc2c(C)cc(=O)oc2c1 | Caspase-3 (CASP3, Homo sapiens, UniProt P42574) | substrate cleavage, substrate, fluorogenic AMC release |  | enzyme 0.25 activity units/µL |  | Vmax | 289 ± 33.2 RFU/min
Nc1nc(N)c2ncn([C@@H]3O[C@@H]4COP(=O)(O)O[C@H]5[C@@H](O)[C@H](n6cnc7c(N)ncnc76)O[C@@H]5COP(=O)(O)O[C@H]4[C@H]3O)c2n1 | ydaO riboswitch wild type (Bacillus subtilis) | competition gel-shift |  | concentration not given | relative to: c-di-AMP, higher = weaker binding | binding affinity fold loss | 650
C[C@]12CC[C@@H]3c4cc(Cl)c(O)c(Cl)c4CC[C@H]3[C@@H]1CCC2=O | AKR1C2 (Homo sapiens, UniProt P52895) | enzyme activity, inhibitor, absorbance |  | 10 µM, pH 9 |  | inhibition | 23.4%
C[C@]1(COC(=O)Cc2ccc(O)c(O)c2)[C@H](C(=O)O)N2C(=O)/C(=C/c3ccccn3)[C@H]2S1(=O)=O | OXA-23 (Acinetobacter baumannii, UniProt Q9L4P2) | enzyme activity, inhibitor, absorbance |  |  |  | kinact | 0.041 s⁻¹
CC12CCC(C(=O)O)(OC1=O)C2(C)C (centres unmarked) | Beta-lactamase (ampC, Escherichia coli K-12, UniProt P00811) |  |  |  |  | ligand efficiency | 0.24
CCCCCCCCCCCCCCCc1ccc(C(F)P(=O)(O)O)cc1 (racemic) | Autotaxin (ENPP2, Homo sapiens, UniProt Q13822) | inhibitor |  | 10 µM, 2 h, together with: FS-3 1 µM | relative to: control | remaining activity | 42.3%
CN1C(=O)[C@H](CCC(=O)O)NC(=O)[C@H](Cc2ccc(O)cc2)NC(=O)[C@H](CCCNC(=N)N)NC(=O)[C@@H](Cc2ccc(O)cc2)NC(=O)CSC[C@@H](C(=O)N2CCC[C@H]2C(=O)N[C@@H](CCCCN)C(=O)N[C@@H](CS)C(N)=O)NC(=O)[C@H](CCC(=O)O)NC(=O)[C@H](Cc2ccc(O)cc2)N(C)C(=O)[C@H](CCCCN)NC(=O)[C@H](Cc2ccc(O)cc2)NC(=O)[C@@H]1Cc1ccc(O)cc1 | 2,3-bisphosphoglycerate-independent phosphoglycerate mutase (gpmI, Staphylococcus aureus, UniProt Q6GIL5) | thermal stability, thermal shift |  |  |  | Tm | 48.7 °C
NC(CNC(CNC(CC(=O)O)C(=O)O)C(=O)O)C(=O)O (centres unmarked) | VIM-2 (Escherichia coli, UniProt Q5U7L7) | enzyme activity, inactivator |  | 37 °C, enzyme 10 nM, together with: nitrocefin 20 µM |  | inactivation rate constant | 0.0065 s⁻¹
CC(C)C[C@H](NC(=O)[C@H](Cc1ccc2ccccc2c1)NC(=O)CNC(=O)[C@H](NC(=O)[C@@H](N)Cc1ccc(O)cc1)[C@H](C)O)C(=O)N[C@@H](CO)C(N)=O | OPRK1 (Homo sapiens, UniProt P41145) | GTPγS binding, agonist, radiometric |  | cell membranes |  | Emax | 25%
O=C(/C=C/c1ccccc1)c1ccc(N2CCNCC2)cc1 | BACE1 | enzyme activity, inhibitor, fluorescence |  | 10 µM |  | remaining activity | 90.6%
Cn1ccc(-c2ccc(Cn3cc(C(=O)N[C@H]4CCCC[C@@H]4O)c4c(F)cc(F)cc43)cn2)n1 | CHRM1 (Homo sapiens, UniProt P11229) | calcium mobilization, agonist | CHO cells |  | relative to: ACh maximum | maximum response | 48 ± 12%
CC(=O)N[C@H]1[C@@H](OP(=O)(O)OP(=O)(O)OC/C=C(/C)CC/C=C(/C)CC/C=C(/C)CC/C=C(/C)CC/C=C(/C)CC/C=C(/C)CC/C=C(/C)CC/C=C(/C)CC/C=C(\C)CC/C=C(\C)CCC=C(C)C)O[C@H](CO)[C@@H](O)[C@@H]1O[C@H](C)C(=O)N[C@@H](C)C(=O)N[C@H](CCC(=O)N[C@@H](CCCCNC(=O)OCCCCCCNC(=S)Nc1ccc(NS(=O)(=O)c2cccc3c(N(C)C)cccc23)cc1)C(=O)N[C@H](C)C(=O)N[C@H](C)C(=O)O)C(=O)O | UDP-N-acetylglucosamine--N-acetylmuramyl-(pentapeptide) pyrophosphoryl-undecaprenol N-acetylglucosamine transferase (murG, Mycolicibacterium smegmatis, UniProt A0R016) | substrate |  | together with: UDP-GlcNAc 62.5 µM |  | Km | 25 ± 3 µM
CC(C)P(=S)(NP(=[Se])(C(C)C)C(C)C)C(C)C | Alpha-amylase (Bacillus subtilis, UniProt P00691) | binding, FRET |  | 298 K |  | donor–acceptor distance | 2.03 nm
CC(C)C[C@@H]1NC(=O)[C@@H](NC(=O)CN)CSSC[C@@H]2NC(=O)[C@@H]3CSSC[C@@H](C(=O)N[C@@H](CC(N)=O)C(=O)N[C@@H](Cc4ccccc4)C(=O)N[C@@H](CO)C(=O)N[C@@H](Cc4ccccc4)C(N)=O)NC(=O)[C@H](CC(C)C)NC(=O)[C@H](CCCCN)NC(=O)[C@H](Cc4ccccc4)NC(=O)[C@H](CC(C)C)NC(=O)[C@H](CCCCN)NC(=O)[C@H](CO)NC(=O)[C@H](CSSC[C@H](NC(=O)[C@H](CCCCN)NC(=O)[C@H](Cc4c[nH]c5ccccc45)NC(=O)[C@H](Cc4c[nH]c5ccccc45)NC(=O)[C@H](Cc4ccccc4)NC(=O)[C@H](CCC(=O)O)NC1=O)C(=O)N[C@@H](CC(N)=O)C(=O)N1CCC[C@H]1C(=O)N[C@@H](CC(N)=O)C(=O)N[C@@H](CC(=O)O)C(=O)N[C@@H](CC(=O)O)C(=O)N[C@@H](CCCCN)C(=O)N3)NC(=O)[C@H](CCCCN)NC(=O)[C@H](CC(C)C)NC(=O)[C@H](CCCCN)NC(=O)[C@@H]1CCCN1C(=O)[C@H](CCCNC(=N)N)NC2=O | Piezo1 (Mus musculus, UniProt E2JF22) | mechanosensitive current, whole-cell patch clamp |  |  |  | dissociation rate constant | 0.1 s⁻¹
C[C@H](CCC(=O)NCC(=O)O)[C@H]1CC[C@H]2[C@@H]3C(=O)C[C@H]4C[C@H](O)CC[C@]4(C)[C@H]3CC[C@]12C | SLC10A2 (Homo sapiens, UniProt Q12908) | substrate | SLC10A2-MDCK cells | 10 min, together with: with vs without sodium |  | Kt | 34 ± 7.64 µM
O=C(N=P12CN3CN(CN(C3)C1)C2)c1ccccn1.[Cl][Pt][Cl] | Albumin (ALB, Homo sapiens, UniProt P02768) | adduct reversibility, circular dichroism |  | concentration not given, 1 h, together with: 3-fold citric acid |  | CD band decrease | 50%
O=C(/C=C/c1ccc(Cl)cc1)c1cc2ccccc2oc1=O | BACE1 | enzyme activity, inhibitor, fluorescence |  | 10 µM |  | remaining activity | 78.1%
CC1(CCN2CCc3ccccc3C2)Cc2cc(Cl)ccc2C1=O (single isomer, unassigned) | HTR7 (Homo sapiens, UniProt P34969) | β-arrestin recruitment, agonist |  |  |  | Emax | 43.2%
CC(=O)NCC(=O)N(C)[C@@H](Cc1ccccc1)C(=O)N[C@@H](Cc1ccccc1)C(=O)N[C@@H](Cc1ccccc1)C(=O)N[C@@H](CCCNC(=N)N)C(=O)N[C@@H](CC(C)C)C(=O)N[C@@H](CCCNC(=N)N)C(=O)N[C@@H](CCCNC(=N)N)C(=O)N[C@H](C)C(=O)N[C@@H](CCCNC(=N)N)C(=O)N1CCC[C@H]1C(=O)N[C@@H](CCCCN)C(N)=O | Oprk1 (Rattus norvegicus, UniProt P34975) | agonist | CHO cells | 10 µM | relative to: dynorphin A(1-13) amide | adenylyl cyclase activity | 82 ± 17%
COC[C@H]1CC[C@@H]2/C1=C\[C@@]1(C)CCC(C(C)C)=C1[C@@H](O[C@H]1O[C@H](CO)[C@@H](O)[C@H](O)[C@H]1O)[C@H](O)[C@@H]2C | 14-3-3 protein gamma, with p53 (YWHAG, Homo sapiens, UniProt P61981) | protein-peptide binding, fluorescence anisotropy and ITC |  |  |  | complex stabilization | no effect
CC[C@H](C)[C@H](NC(=O)[C@H](CCC(N)=O)NC(=O)[C@H](CC(C)C)NC(=O)[C@@H](NC(=O)CNC(=O)[C@H](Cc1ccc(O)cc1)NC(=O)[C@H](CC(=O)O)NC(=O)[C@@H](NC(=O)[C@H](CO)NC(=O)CNC(=O)[C@H](CC(=O)O)NC(=O)[C@@H](NC(=O)[C@H](CC(N)=O)NC(=O)[C@H](CCCNC(=N)N)NC(=O)[C@H](CC(N)=O)NC(=O)[C@@H](NC(=O)[C@H](C)NC(=O)[C@H](CCC(N)=O)NC(=O)[C@@H](NC(=O)[C@H](CC(N)=O)NC(=O)[C@H](Cc1ccccc1)NC(=O)[C@H](CC(N)=O)NC(=O)[C@H](CO)NC(=O)[C@H](CCC(=O)O)NC(=O)[C@H](Cc1ccccc1)NC(=O)[C@H](CCCCN)NC(=O)[C@H](C)NC(=O)[C@H](C)NC(=O)[C@H](CO)NC(=O)[C@@H](NC(=O)[C@H](Cc1c[nH]c2ccccc12)NC(=O)[C@H](CC(N)=O)NC(=O)CNC(=O)[C@H](CC(C)C)NC(=O)[C@H](CO)NC(=O)[C@H](Cc1ccc(O)cc1)NC(=O)CNC(=O)[C@H](CCCNC(=N)N)NC(=O)[C@H](Cc1ccc(O)cc1)NC(=O)[C@H](CC(N)=O)NC(=O)[C@@H](N)CC(=O)O)C(C)C)[C@@H](C)O)[C@@H](C)O)[C@@H](C)O)[C@@H](C)O)[C@@H](C)CC)C(=O)O | Periplasmic serine endoprotease DegP (degP, Escherichia coli, UniProt P0C0V0, S236A) | sedimentation velocity |  | 30 µM, together with: degP 20 µM |  | 12-mer fraction | 66 % mol
CC[C@H](C)[C@H](NC(=O)[C@H](Cc1ccc(O)cc1)NC(=O)[C@@H]1CCCN1C(=O)[C@H](C)NC(=O)[C@H](CC(C)C)NC(=O)[C@H](C)NC(=O)CCCCCNC(=O)[C@H](Cc1ccc(O)cc1)NC(=O)[C@H](Cc1c[nH]cn1)NC(=O)[C@H](CCSC)NC(=O)[C@H](CCSC)NC(=O)[C@H](CC(=O)O)NC(=O)[C@@H]1CCCN1C(=O)[C@@H]1CCCN1C(=O)[C@H](Cc1c[nH]c2ccccc12)NC(=O)[C@H](CO)NC(=O)[C@@H](NC(=O)[C@H](Cc1ccc(O)cc1)NC(=O)[C@H](Cc1ccc(O)cc1)NC(C)=O)C(C)C)C(=O)N1CCC[C@H]1C(=O)N[C@@H](Cc1ccc(O)cc1)C(=O)NCC(=O)N[C@@H](CCCNC(=N)N)C(=O)N[C@@H](CCCCN)C(=O)N[C@@H](CCCCN)C(=O)N[C@@H](CCCNC(=N)N)C(=O)N[C@@H](CCCNC(=N)N)C(=O)N[C@@H](CCC(N)=O)C(=O)N[C@@H](CCCNC(=N)N)C(=O)N[C@@H](CCCNC(=N)N)C(=O)N[C@@H](CCCNC(=N)N)C(N)=O | STAT3 (Homo sapiens, UniProt P40763) | degrader, Western blot | HCT-116 | 10 µM, 12 h |  | protein degradation | ~50%

Repeated from above:
Structure (SMILES) | target | test | system | conditions | how to read | measurement | result
O=C(/C=C/c1ccc(Cl)cc1)c1cc2ccccc2oc1=O | BACE1 | enzyme activity, inhibitor, fluorescence |  | 10 µM |  | remaining activity | 78.1%
CC(=O)NCC(=O)N(C)[C@@H](Cc1ccccc1)C(=O)N[C@@H](Cc1ccccc1)C(=O)N[C@@H](Cc1ccccc1)C(=O)N[C@@H](CCCNC(=N)N)C(=O)N[C@@H](CC(C)C)C(=O)N[C@@H](CCCNC(=N)N)C(=O)N[C@@H](CCCNC(=N)N)C(=O)N[C@H](C)C(=O)N[C@@H](CCCNC(=N)N)C(=O)N1CCC[C@H]1C(=O)N[C@@H](CCCCN)C(N)=O | Oprk1 (Rattus norvegicus, UniProt P34975) | agonist | CHO cells | 10 µM | relative to: dynorphin A(1-13) amide | adenylyl cyclase activity | 82 ± 17%
CC12CCC(C(=O)O)(OC1=O)C2(C)C (centres unmarked) | Beta-lactamase (ampC, Escherichia coli K-12, UniProt P00811) |  |  |  |  | ligand efficiency | 0.24
CC(C)P(=S)(NP(=[Se])(C(C)C)C(C)C)C(C)C | Alpha-amylase (Bacillus subtilis, UniProt P00691) | binding, FRET |  | 298 K |  | donor–acceptor distance | 2.03 nm
